Experimental data from different studies.
Compare with care: the assays were run in different laboratories. Values joined by “and” are separate records of one study, mostly repeats; a detail may differ. ± marks the error that the study gave.

SMILES | tested on | assay | test system | conditions | how to read | quantity | value
C[C@@H]1CCO[C@H]2Cn3cc(C(=O)NCc4ccc(F)cc4F)c(=O)c(O)c3C(=O)N12 | SLC22A3 (Homo sapiens, UniProt O75751) | transport | MDCK-II, transfected | 3 µM, with: MPP+ 2 µM |  | inhibition | 13.6%
O=c1nc(SCc2cc(F)cc(C(F)(F)F)c2)nc(SCc2ccc3nc(Cl)ccc3c2)[nH]1 | TOP2A (Homo sapiens, UniProt P11388) | ATPase activity |  | 125 µM, with: ATP 2 mM |  | ATP hydrolysis rate | 0.425 µM/min and 2.77 µM/min
C=CC(=O)N1CCC(COCC(=O)N2CCN(c3nc(-c4cnc(N)nc4C(F)F)nc(N4CCOC[C@@H]4C)n3)CC2)CC1 | MELK (Homo sapiens, UniProt Q14680) | KINOMEscan |  | 1 µM |  | remaining binding | 100%
CC(=O)N1CC(C(=O)Nc2ccc([C@H]3[C@@H](F)[C@@H](F)C[C@@H](F)[C@H]3F)cc2)C1 |  | hepatocyte stability | cryopreserved mouse hepatocytes | 1 µM |  | hepatic clearance | 21 mL/min/kg
CC[C@H](C)[C@H](NC(=O)[C@H](Cc1ccccc1)NC(=O)[C@H](CCC(=O)O)NC(=O)[C@H](CCCNC(=N)N)NC(=O)[C@H](C)NC(=O)[C@H](C)NC(=O)[C@H](CCC(N)=O)NC(=O)[C@H](CCC(=O)O)NC(=O)[C@H](CCC(=O)O)NC(=O)[C@H](CC(C)C)NC(=O)[C@H](Cc1ccc(O)cc1)NC(=O)[C@H](CO)NC(=O)[C@H](CO)NC(=O)[C@@H](NC(=O)[C@H](CC(=O)O)NC(=O)[C@H](CO)NC(=O)[C@@H](NC(=O)[C@H](Cc1ccccc1)NC(=O)[C@@H](NC(=O)CNC(=O)[C@H](CCC(=O)O)NC(=O)[C@H](C)NC(=O)CCc1cnc[nH]1)[C@@H](C)O)[C@@H](C)O)C(C)C)C(=O)N[C@@H](C)C(=O)N[C@@H](Cc1c[nH]c2ccccc12)C(=O)N[C@@H](CC(C)C)C(=O)N[C@H](C(=O)N[C@@H](CCCCNc1c(NCCCCCN(O)C(=O)CCC(=O)NCCCCCN(O)C(=O)CCC(=O)NCCCCCN(O)C(C)=O)c(=O)c1=O)C(=O)NCC(=O)N[C@@H](CCCNC(=N)N)C(=O)N[C@@H](CCCCNc1c(NCCCCCN(O)C(=O)CCC(=O)NCCCCCN(O)C(=O)CCC(=O)NCCCCCN(O)C(C)=O)c(=O)c1=O)C(=O)NCC(=O)NCC(=O)N[C@@H](CO)C(=O)N[C@@H](CCCCNC(=O)COCCOCCNC(=O)COCCOCCNC(=O)CC[C@H](NC(=O)CCCCCCCCCCCCCCCCC(=O)O)C(=O)O)C(=O)O)C(C)C | GLP1R (Homo sapiens, UniProt P43220) | agonist, CRE luciferase reporter | BHK cells | metal-free DFO conjugate, with: 1% HSA | baseline: parent peptide | fold potency loss | 3.7
CC(C)C[C@H](NC(=O)C[C@H](O)[C@H](CC(C)C)NC(=O)[C@H](Cc1c[nH]cn1)NC(=O)CNC(=O)[C@@H](NC(=O)[C@H](C)NC(=O)[C@H](Cc1c[nH]c2ccccc12)NC(=O)[C@H](CCC(N)=O)NC(=O)[C@@H](Cc1ccccc1)NC(=O)COCCOCCNC(=O)CCC(C(=O)O)N1CCN(CC(=O)O)CCN(CC(=O)O)CCN(CC(=O)O)CC1)C(C)C)C(N)=O (some centres unmarked) [lutetium-177 labelled] |  |  | BALB/c nu/nu mice, stomach | intravenous, 250 pmol, 1 h, with: PA 300 µg |  | tissue uptake | 1.2 ± 0.6 %ID/g
O=C(Cc1cccnc1)Nc1ccc(C2CCCCC2)cc1 |  |  | cryopreserved rat hepatocytes | 1 µM |  | hepatic clearance | 46 mL/min/kg
COc1cccc(-n2nc3c4cc(Cl)ccc4[nH]cc-3c2=O)c1 | Gamma-aminobutyric acid receptor subunit alpha-6/beta-3, with delta subunit (Gabra6/Gabrb3, Rattus norvegicus, UniProt P30191+P63079) | ion current, modulator, two-electrode voltage clamp |  | 3 µM, α6β3δ receptor, with: GABA EC3-10 |  | efficacy | 118.3 ± 0.2%
Cn1cc(-c2ccc(-c3cncc(Cl)c3N3CCC4(CCNC4=O)CC3)cc2)cn1 | COLO 205 | gene expression, microarray, measured: PLK4 (STK18) mRNA |  | concentration not given, 2 h | baseline: untreated cells | log2 fold change | -1.74
C#Cc1cc(-c2cc(Nc3nc(N[C@@H](C)c4ccc(F)cn4)ncc3Cl)n[nH]2)ccc1C=O | NTRK1 (Homo sapiens, UniProt P04629, G667A) | enzyme activity, inhibitor |  | 0.2 µM |  | inhibition | 101%
Cc1cccc(N2CC(C(=O)O)CC2=O)c1 (centres unmarked) | Transcription intermediary factor 1-beta, PHD-bromodomain (TRIM28, Homo sapiens, UniProt Q13263) | binding, affinity selection mass spectrometry |  |  | baseline: other proteins in batch | log fold enrichment | -0.0192
Nc1nc2c(ncn2[C@@H]2O[C@H](COP(=O)(O)O)[C@@H](O)[C@H]2O)c(=O)[nH]1 | GUK1 (Homo sapiens, UniProt Q16774) | enzyme activity, NADH-coupled |  | 1000 µM, with: KCl 10 mM |  | reaction velocity | 0.125 µM/s and 0.115 µM/s and 0.0967 µM/s
Cc1nc(NC(=O)N2CCC[C@H]2C(N)=O)sc1-c1ccnc(C(C)(C)C(F)(F)F)c1 | PIK3CG (Homo sapiens, UniProt P48736) | KINOMEscan |  | 10 µM |  | remaining binding | 0%
[H]/N=C(/N)NCC(=O)O | SLC6A6 (Homo sapiens, UniProt P31641, G62A) | binding, microscale thermophoresis |  | 61 nM, room temperature, with: 50 nM labelled protein | higher = more binding | normalised MST signal | 0.0175

Repeated from above:
SMILES | tested on | assay | test system | conditions | how to read | quantity | value
COc1cccc(-n2nc3c4cc(Cl)ccc4[nH]cc-3c2=O)c1 | Gamma-aminobutyric acid receptor subunit alpha-6/beta-3, with delta subunit (Gabra6/Gabrb3, Rattus norvegicus, UniProt P30191+P63079) | ion current, modulator, two-electrode voltage clamp |  | 3 µM, α6β3δ receptor, with: GABA EC3-10 |  | efficacy | 118.3 ± 0.2%
